Published values from different studies.
Each numbered part is a random draw from the data of one study; scales do not carry over between parts.

Study 1 — technique: protein binding microarray; form: double-stranded DNA, one strand shown; medium: in vitro; concentration: not given; reference: not given; direction: higher = stronger binding
Target: Histone acetyltransferase KAT6A, both winged helices, GST fusion (KAT6A, Homo sapiens, UniProt Q92794, residues 1-181)
Notes: 8-mer, flanks averaged, mean of 2 arrays, mostly near background
Construct (chain): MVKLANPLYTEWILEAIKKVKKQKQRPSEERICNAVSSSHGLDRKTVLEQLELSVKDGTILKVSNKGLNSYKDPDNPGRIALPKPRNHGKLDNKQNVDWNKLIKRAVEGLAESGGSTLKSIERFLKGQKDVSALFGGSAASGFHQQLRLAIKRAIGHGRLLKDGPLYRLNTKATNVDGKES
For `CCTCCTCA`, the E-score was -0.0721.
`GCGCGTCA` gave an E-score of 0.316.
For `AGTTTGCG`, the E-score was 0.135.
The E-score of `ACGGTTGC` is reported as 0.151.
For `TAATTATA`, the E-score was -0.0895.
The E-score of `CCCAAAAA` is reported as -0.0963.
`GTGAACAA` has an E-score of -0.0239.
The E-score of `CCTCTTTC` is reported as -0.273.
For `TCCATGGA`, the E-score was 0.0464.
The E-score of `ACCATAGA` is reported as -0.118.
With `ACAGAGCT` the E-score was -0.151.
`CTTCCTGC` has an E-score of -0.0926.
`GATAACGA` has an E-score of -0.145.
With `GATTTAGA` the E-score was -0.0982.
`ATGCAGTC` has an E-score of -0.0758.
With `ACACCTTG` the E-score was -0.117.
With `ACGTGACG` the E-score was 0.131.
The E-score of `ATTGCCGC` is reported as 0.264.
The E-score of `AAACATAC` is reported as 0.086.

Study 2 — technique: RNA Bind-n-Seq; form: RNA; medium: in vitro; concentration: not given; reference: input RNA pool; direction: higher = stronger binding
Target: RING finger protein unkempt homolog, zinc fingers 1-6, GST-SBP tag (UNK, Homo sapiens, UniProt Q9C0B0, residues 30-357)
Sequence of UniProt Q9C0B0 (30-357, looked up): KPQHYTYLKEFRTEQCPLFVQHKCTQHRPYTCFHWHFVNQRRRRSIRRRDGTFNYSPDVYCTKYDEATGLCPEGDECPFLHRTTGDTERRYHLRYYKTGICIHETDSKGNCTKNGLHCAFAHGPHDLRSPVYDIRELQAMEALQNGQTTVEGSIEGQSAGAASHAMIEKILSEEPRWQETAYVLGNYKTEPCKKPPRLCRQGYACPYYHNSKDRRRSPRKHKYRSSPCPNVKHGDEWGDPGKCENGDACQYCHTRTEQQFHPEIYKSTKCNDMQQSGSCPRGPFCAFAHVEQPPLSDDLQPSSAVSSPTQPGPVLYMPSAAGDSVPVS
Notes: RNA with constant flanks, human and mouse sites, ends assumed
`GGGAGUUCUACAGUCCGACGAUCGAUACAGUAAUUAUGAAUCCUCCCUUUGGGACCAAAAAUAAUAAAGGGACAGAUAUGGCUUUUCUGAAGACUGCUUUGGGAAUGGCAAGAACAGCAGUAUAUUCUUUACACAAGUCCUCACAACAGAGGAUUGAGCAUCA` has a bound/input enrichment of 0.296 ratio.
With `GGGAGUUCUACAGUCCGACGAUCGGUCCCGCCUGUGGCAGCAUCCUUGGGCCAGGGCCACAGCCGAUAUCUUAUACGACCUGUGUUUAGGACAUUUUUUAAAUCAUUGUGUCUAAGCAUCUCAGAGUCAAGUGUGCUUCUUUGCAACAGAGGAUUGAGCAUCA` the bound/input enrichment was 0.18 ratio.
`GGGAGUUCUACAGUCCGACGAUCUUCAAUGACACUUUUCUCUCCAUUGAACAUUUAAAGGCCAGCUUUCCUGGUCAUAAUGUCAAAGUGACUGUGAGUGACCCAGCACUCCAAAUCCCCCCUUUCAGAAUAACGUUCCCAGUACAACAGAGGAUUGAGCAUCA` has a bound/input enrichment of 0.637 ratio.
For `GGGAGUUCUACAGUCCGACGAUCUCAGGAGGAAAGGCAUCCCAGACAGUUUUGAAGUUUUCAAAGACUGGCUCUGCUGUUAAGAAGUUGUACUUAAAGCGGAGGAGCUAAGCCACCUGCCAAAAUGUGCAAAGGACUUGCAGCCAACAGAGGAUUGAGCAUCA`, the bound/input enrichment was 0.122 ratio.
The bound/input enrichment of `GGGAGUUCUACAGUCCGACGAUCGUGAAACUGGUUCUUCCAAAGACCAAGUUUUCUAUGGUGUUACCUGAAGUCGAAGCAGCGUUAGCCGAGAUUCCUGGCGUCCGGAGUGUCGUGUUGUUUGGAGUAGAAACGCACGUGUGUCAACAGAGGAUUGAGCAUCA` is reported as 0.245 ratio.
With `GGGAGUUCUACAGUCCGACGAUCGAGAUGCAUCCAGUGAUGUGAGGGGGACCUCUGGGGACUGUCAUUCUCAGUAUCAUGUAGGAAUUUAAAAAGCCAAAAUACUAAUUCUUUCUUUGUAGUGUGUAAGGGAGUGUUUUUAAACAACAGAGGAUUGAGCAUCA` the bound/input enrichment was 3.42 ratio.
With `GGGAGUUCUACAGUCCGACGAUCAAGAUGUCAGGAUGAAUUGUCAAAUGUAUGGCUCUGUGUGUGCGAGGUGUGUGUGUGUGUGUGUGUGUGUGUGUGUGUGUGUGUGUGUGUGUCUUUUGCUUCUCCAGAAUGGGAAGUUGUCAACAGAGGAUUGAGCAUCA` the bound/input enrichment was 2.61 ratio.
The bound/input enrichment of `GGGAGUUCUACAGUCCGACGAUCACAACGGUUUCCCUUUGAAGGGGACGGACAAAGCCCGAGUGACCAGCGGCGGCGGGGAGGACUAGUCCCCGGGCAGUUUGGUGCCCUGGUUGUCAGAUGUUGGAAAGCAGUAGGACGGAACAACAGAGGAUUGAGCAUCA` is reported as 0.272 ratio.
`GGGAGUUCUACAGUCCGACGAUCUAGAUACAUAUAUAUUUGCUUGAAGAAUCACCAAGCAAAUUGGUGAGAGGGUCUUUUCCAAUAGAAUUUACACCUCCAUUUGUUGUGUUGUCUUGCACUUCCCAAUGUUGAUGUCUCUAUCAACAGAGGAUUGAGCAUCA` has a bound/input enrichment of 1.06 ratio.
`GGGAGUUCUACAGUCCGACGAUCUAGAUGGAAGAUUGAAAUUAGUCUUUACUUCCCCUUCUUACUAUGAUGAUGUCCACUUUUAAAUGUUGCUAAAAGAGAACAAUUUCAACUAAUCUUGACAUUUUCCUGACUAACUAGACACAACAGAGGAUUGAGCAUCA` has a bound/input enrichment of 1.38 ratio.
The bound/input enrichment of `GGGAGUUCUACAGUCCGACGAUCUAAAAGACAUCCAGCCAAACUCUCAGUCUUGCCUUAACAAUGUUCCAGAGGCUGAAUAAAAUGUUUGUGGGUGAAGUCAGUUCUUCCUCCAACCAAGAACCAGAAUUCAAUGAGAAAGAACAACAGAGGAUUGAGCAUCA` is reported as 0.169 ratio.

Study 3 — technique: universal PBM; form: double-stranded DNA, one strand shown; medium: in vitro; concentration: not given; direction: higher = stronger binding
Target: Sal-like protein 4, full length isoform B (SALL4, Homo sapiens, UniProt Q9UJQ4-2, residues 1-616)
Notes: 8-mer, flanks averaged, mean of replicates
Construct (chain): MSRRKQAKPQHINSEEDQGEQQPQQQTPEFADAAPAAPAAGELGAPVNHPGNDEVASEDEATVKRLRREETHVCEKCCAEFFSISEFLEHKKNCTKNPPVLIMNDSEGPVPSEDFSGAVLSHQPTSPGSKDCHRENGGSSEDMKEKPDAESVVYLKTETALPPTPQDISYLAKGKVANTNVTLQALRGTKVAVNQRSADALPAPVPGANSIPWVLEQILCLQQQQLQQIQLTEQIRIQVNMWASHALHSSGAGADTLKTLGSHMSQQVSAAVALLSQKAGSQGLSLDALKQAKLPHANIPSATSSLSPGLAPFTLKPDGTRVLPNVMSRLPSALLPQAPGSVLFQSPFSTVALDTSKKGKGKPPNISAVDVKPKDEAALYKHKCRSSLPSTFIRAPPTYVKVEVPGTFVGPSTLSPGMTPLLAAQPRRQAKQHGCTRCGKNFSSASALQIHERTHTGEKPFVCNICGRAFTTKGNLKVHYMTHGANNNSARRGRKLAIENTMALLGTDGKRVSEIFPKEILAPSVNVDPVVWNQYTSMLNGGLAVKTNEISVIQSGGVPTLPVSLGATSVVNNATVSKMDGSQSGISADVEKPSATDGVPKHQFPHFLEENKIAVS
`CTGGAGGC` gave an E-score of -0.0565.
`AACCACTC` has an E-score of -0.137.
With `GGCAACCA` the E-score was -0.214.
With `ACCTCCAT` the E-score was -0.0435.
`CTCATAAG` gave an E-score of 0.187.
For `CAAACCTA`, the E-score was 0.0649.
The E-score of `ACTTTTAC` is reported as 0.233.
With `CGAACAAC` the E-score was 0.212.
For `GGATGGAA`, the E-score was -0.0948.
`ACTATAAT` gave an E-score of 0.364.
`GAGTGAAA` gave an E-score of 0.223.
With `GCAATCGC` the E-score was -0.161.
With `GACGCGGC` the E-score was -0.172.
`CACAAGAA` gave an E-score of 0.0128.
For `CCTAATCA`, the E-score was 0.159.
`CAGGTACC` gave an E-score of -0.261.
`AGTCGCGG` has an E-score of -0.313.
`AAGGTCGG` has an E-score of -0.00856.
`ACTAACAA` gave an E-score of 0.168.
`AAGCGGTG` has an E-score of -0.203.

Study 4 — technique: RNA Bind-n-Seq; form: RNA; medium: in vitro; concentration: 365 nM; reference: no-protein control; direction: higher = stronger binding
Target: RNA binding protein fox-1 homolog 2, RRM domain, GST-SBP tag (RBFOX2, Homo sapiens, UniProt O43251-10, residues 100-194)
Notes: natural RNA segment, single round, ends assumed
Residues (chain): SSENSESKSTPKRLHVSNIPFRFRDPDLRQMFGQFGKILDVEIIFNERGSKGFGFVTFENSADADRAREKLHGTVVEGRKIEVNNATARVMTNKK
`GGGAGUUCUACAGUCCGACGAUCCCCUGUGAGGUUUCAGGCACUAAAACUCUAUGUGGGGAAGGGAGGGGUUACUCCUCCUCCAAUGGGACUCAAGGACUUGACCUCCAGGAGUAGGCCCCUGGUCAGAAGUGUGGAAUUCUCGGGUGCCAA` — result for “RBNS enrichment (R)”: 0.567.
For `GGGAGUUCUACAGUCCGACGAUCAGAUUUGUUGGAUCUAUUUGGUUUAAAAAGUAUUCUAUCUUAAGGCCAACUAAUAUAAAAUACCAUUGUUAAAGAAUGGUACUUUUAUAAACAUUAGUGUAUUUAUUUCCUGGAAUUCUCGGGUGCCAA`, “RBNS enrichment (R)” read 0.328.
`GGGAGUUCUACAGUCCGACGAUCGAGUUUCCCAGCCCCAAGUGGGGGCUGCUAGGCCCUUCCUCCCUGCCUCUGGGAACCGGGCUGGUGCCCUGCCUUUCCUGAGCAGGGCUCCUCCUCCAGAAGCGGUGGUCUGGAAUUCUCGGGUGCCAA`: “RBNS enrichment (R)” 0.195.
For `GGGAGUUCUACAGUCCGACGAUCAAAAGAUGUGGGUGGAUAGUAUAUUUCUACAGGUGGGUCAGGUUUGGUAGCAGUUUGAUGUGCUGGGUUCUGUCAUCUGUUCUGAUGAGAAGAUUUUUAUCUUCUGCAGUUGGAAUUCUCGGGUGCCAA`, “RBNS enrichment (R)” read 0.605.
For `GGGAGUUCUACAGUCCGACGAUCCCGUCCCUCCCCAGAUGGGGCGUUGAGUCCAUAUUUAAACUGGCCACCCUCACAGUUCUAACUUAGCAAGUGCUUUUCUUUAGAACCCCUUCUUAACGAGCAAUAUGUCUUGGAAUUCUCGGGUGCCAA`, “RBNS enrichment (R)” read 0.432.
`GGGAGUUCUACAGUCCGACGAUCCCAGAUUACUUCCUCCACCCCUCCCUAUCUCACCUGCCCAGCCCUGUGCUGGGGCCCUGCAAUUGGAAUGUUGGCCAGAUUUCUGCAAUAAACACUUGUGGUUUGCGGCCUGGAAUUCUCGGGUGCCAA`: “RBNS enrichment (R)” 0.723.
Under “RBNS enrichment (R)”, `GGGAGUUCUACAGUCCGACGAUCUAGUGUUGGUGCAGCACCAGCCUGGGCUCUGGGCUCCUCACCGAGACUCAGAGGCCACACUGAUUUGUGCUGCAUCCAGACCCCCGUCUCCCUCCCCACCACCAUUCCUUUGGAAUUCUCGGGUGCCAA` is recorded as 0.17.
For `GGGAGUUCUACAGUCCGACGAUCCAGUAGUGAGGCCUGAGGACCCAUCUGAUGCCCAGGCUCUUCCAGCCACUGUCUAGACCUCCUCCAUCAGAUGCCUAGGCCUCCUCCAUCAGAUACCUGGGCCUCCUCCAUGGAAUUCUCGGGUGCCAA`, “RBNS enrichment (R)” read 0.209.
Under “RBNS enrichment (R)”, `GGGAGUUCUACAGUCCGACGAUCUUCUAAGUCCCUCGAGUAAACGACAAUCAGGAAACGAACUCUCAGUGGCGGUGGUGCGUAGAACAUUAUGCUAAGGCCCAGAACUGAUCAGAGAAUUUGUUCACCACCGUUGGAAUUCUCGGGUGCCAA` is recorded as 0.37.

A few entries again (study 1):
The E-score of `ACCATAGA` is reported as -0.118.
For `AGTTTGCG`, the E-score was 0.135.
The E-score of `ACGGTTGC` is reported as 0.151.
`GCGCGTCA` gave an E-score of 0.316.
With `ACACCTTG` the E-score was -0.117.
The E-score of `AAACATAC` is reported as 0.086.
